Measured values gathered from unrelated publications.
± marks the error that the study gave.
Beta-lactamase CTX-M-27: Beta-lactamase CTX-M-27 (Escherichia coli, UniProt Q840M4)
PIN1: Peptidyl-prolyl cis-trans isomerase NIMA-interacting 1 (PIN1, Homo sapiens, UniProt Q13526)
Sequence of UniProt Q13526 (whole entry, looked up): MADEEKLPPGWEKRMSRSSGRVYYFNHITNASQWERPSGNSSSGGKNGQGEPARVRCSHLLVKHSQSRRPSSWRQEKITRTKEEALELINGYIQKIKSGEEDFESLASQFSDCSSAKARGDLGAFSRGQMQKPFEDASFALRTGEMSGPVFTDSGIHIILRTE
Sequence of UniProt P02679 (whole entry, unmodified, looked up): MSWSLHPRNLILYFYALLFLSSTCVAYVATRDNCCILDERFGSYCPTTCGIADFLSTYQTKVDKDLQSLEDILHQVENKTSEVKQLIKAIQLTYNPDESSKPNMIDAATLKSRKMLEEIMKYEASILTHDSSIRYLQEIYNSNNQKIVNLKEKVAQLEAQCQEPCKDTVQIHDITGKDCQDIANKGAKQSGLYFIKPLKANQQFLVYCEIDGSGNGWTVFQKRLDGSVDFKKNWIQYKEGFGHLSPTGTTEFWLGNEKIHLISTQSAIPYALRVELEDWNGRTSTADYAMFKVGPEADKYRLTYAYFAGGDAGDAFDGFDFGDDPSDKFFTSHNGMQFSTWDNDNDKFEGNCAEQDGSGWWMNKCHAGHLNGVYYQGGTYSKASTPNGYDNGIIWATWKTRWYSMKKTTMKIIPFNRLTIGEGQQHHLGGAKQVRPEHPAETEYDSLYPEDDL
Sequence of UniProt Q07741 (whole entry, looked up): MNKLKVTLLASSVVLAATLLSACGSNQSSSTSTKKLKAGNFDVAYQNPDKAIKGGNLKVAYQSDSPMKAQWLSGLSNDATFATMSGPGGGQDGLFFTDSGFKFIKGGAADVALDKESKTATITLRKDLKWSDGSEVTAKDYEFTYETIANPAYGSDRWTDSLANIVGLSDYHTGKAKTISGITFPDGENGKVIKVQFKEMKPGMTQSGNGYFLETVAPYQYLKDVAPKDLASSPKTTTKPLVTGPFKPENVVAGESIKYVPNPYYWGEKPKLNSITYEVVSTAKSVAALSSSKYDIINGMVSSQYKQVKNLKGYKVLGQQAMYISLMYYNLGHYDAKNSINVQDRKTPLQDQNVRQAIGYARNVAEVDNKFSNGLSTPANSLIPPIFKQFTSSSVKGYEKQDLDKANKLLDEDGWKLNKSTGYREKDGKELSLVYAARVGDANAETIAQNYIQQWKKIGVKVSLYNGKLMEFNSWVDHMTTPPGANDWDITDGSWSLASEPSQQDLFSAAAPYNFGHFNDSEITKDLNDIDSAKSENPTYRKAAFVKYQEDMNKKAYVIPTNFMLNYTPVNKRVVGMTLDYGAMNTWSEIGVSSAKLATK
Sequence of UniProt B9K712 (whole entry, unmodified, looked up): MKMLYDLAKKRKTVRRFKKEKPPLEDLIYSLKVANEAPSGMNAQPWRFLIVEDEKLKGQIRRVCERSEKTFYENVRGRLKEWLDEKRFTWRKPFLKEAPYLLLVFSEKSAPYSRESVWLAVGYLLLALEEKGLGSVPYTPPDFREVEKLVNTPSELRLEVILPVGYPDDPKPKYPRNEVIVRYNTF
Sequence of UniProt P02671 (whole entry, unmodified, looked up): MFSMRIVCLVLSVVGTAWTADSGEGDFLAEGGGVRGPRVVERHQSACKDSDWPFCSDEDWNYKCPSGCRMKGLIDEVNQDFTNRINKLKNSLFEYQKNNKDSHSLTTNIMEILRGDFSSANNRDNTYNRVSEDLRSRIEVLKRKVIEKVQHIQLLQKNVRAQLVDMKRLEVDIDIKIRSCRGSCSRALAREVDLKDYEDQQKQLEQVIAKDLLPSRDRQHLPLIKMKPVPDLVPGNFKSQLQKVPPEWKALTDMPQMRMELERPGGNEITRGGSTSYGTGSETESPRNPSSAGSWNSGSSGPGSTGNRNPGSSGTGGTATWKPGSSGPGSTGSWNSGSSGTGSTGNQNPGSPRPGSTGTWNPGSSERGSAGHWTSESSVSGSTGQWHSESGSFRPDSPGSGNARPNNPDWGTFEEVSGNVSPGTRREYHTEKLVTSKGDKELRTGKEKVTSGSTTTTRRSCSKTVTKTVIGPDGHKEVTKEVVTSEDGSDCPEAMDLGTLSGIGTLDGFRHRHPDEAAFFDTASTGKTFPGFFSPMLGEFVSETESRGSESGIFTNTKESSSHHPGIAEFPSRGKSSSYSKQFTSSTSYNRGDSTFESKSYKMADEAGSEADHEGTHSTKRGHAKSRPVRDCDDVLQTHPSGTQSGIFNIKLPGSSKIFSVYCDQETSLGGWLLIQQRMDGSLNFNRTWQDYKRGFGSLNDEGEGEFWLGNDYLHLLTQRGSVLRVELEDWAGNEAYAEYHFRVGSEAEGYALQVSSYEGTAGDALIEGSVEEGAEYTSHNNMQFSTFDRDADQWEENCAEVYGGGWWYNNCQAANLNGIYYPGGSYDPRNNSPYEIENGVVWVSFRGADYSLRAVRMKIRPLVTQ
Sequence of UniProt P02699 (whole entry, looked up): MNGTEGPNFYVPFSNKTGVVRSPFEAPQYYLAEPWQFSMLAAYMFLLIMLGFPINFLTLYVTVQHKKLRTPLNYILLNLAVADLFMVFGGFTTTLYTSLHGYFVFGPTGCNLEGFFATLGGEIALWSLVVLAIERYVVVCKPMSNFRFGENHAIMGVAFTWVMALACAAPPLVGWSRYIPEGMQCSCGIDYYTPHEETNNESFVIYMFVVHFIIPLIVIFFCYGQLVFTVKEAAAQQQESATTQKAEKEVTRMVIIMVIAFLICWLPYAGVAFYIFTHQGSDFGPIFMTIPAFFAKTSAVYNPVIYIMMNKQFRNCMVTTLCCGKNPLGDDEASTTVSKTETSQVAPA
Sequence of UniProt Q9BYG8 (whole entry, looked up): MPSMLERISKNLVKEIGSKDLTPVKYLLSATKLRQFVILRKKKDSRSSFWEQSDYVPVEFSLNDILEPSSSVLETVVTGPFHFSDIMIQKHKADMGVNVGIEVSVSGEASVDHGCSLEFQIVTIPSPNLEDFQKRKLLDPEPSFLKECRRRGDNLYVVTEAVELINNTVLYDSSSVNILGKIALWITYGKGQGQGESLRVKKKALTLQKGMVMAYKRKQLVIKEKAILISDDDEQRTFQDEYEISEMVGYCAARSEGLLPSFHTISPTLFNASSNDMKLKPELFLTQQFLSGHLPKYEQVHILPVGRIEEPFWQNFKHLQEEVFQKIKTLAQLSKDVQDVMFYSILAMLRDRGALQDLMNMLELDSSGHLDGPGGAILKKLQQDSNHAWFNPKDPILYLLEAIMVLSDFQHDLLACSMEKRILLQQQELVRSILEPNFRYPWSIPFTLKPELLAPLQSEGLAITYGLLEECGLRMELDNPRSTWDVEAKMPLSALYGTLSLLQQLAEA
Sequence of UniProt Q9NYW4 (whole entry, looked up): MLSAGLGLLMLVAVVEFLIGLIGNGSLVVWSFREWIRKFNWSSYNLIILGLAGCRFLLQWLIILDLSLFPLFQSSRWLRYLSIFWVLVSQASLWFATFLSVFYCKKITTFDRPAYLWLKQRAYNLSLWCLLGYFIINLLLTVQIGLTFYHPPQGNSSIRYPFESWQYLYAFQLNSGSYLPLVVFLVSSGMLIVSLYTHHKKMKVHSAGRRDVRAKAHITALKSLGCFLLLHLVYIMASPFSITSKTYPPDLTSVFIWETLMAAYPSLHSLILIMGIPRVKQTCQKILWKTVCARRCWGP
Sequence of UniProt O15392 (whole entry, unmodified, looked up): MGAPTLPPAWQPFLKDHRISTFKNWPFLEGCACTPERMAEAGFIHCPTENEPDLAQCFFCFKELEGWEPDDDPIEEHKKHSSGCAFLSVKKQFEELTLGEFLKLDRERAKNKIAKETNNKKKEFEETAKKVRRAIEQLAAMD
Sequence of UniProt P16947 (whole entry, looked up): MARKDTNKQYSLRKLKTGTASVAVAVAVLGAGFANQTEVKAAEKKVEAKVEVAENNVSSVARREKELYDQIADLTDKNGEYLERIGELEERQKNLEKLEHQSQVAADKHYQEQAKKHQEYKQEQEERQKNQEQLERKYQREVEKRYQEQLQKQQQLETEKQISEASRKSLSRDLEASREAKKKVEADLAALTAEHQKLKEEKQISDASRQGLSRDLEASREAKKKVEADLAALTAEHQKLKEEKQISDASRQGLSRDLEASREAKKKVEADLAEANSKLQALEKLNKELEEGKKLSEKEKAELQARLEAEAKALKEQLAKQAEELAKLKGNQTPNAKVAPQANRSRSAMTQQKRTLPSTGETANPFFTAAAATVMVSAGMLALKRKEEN

SMILES	target	test	system	conditions	Kd
N=C(N)NCCC[C@H](NC(=O)[C@H](Cc1ccccc1)NC(=O)[C@@H]1CCCN1C(=O)[C@H](CO)NC(=O)[C@H](Cc1ccccc1)NC(=O)CNC(=O)[C@@H]1CCCN1C(=O)[C@@H]1CCCN1C(=O)[C@@H](N)CCCNC(=N)N)C(=O)N[C@@H](CCCCNS(=O)(=O)c1ccc(C2=c3cc4c5c(c3Oc3c2cc2c6c3CCCN6CCC2)CCC[N+]=5CCC4)c(S(=O)(=O)[O-])c1)C(=O)O	Oligopeptide-binding protein OppA (oppA, Lactococcus lactis subsp. lactis, UniProt Q07741)	binding, fluorescence anisotropy		pH 7, 18 °C, with: dye-labelled peptide	15.4 ± 0.4 µM
c1cnc2c(c1)c1nccnc1c1cccnc12	TAS2R5 (Homo sapiens, UniProt Q9NYW4)		HEK293 cell membranes		2.5 ± 1.6 µM
O=C(Nc1cccc(-c2nn[nH]n2)c1)c1cc(-c2ccco2)cc(C(F)(F)F)c1	Beta-lactamase CTX-M-27	surface plasmon resonance		25 °C	2.5 ± 0.07 µM
CC[C@H](C)[C@H](NC(=O)CNC(=O)[C@H](CCSC)NC(=O)[C@H](CCC(N)=O)NC(=O)[C@H](C)NC(=O)[C@H](CCC(N)=O)NC(=O)[C@@H](NC(=O)[C@H](CC(C)C)NC(=O)[C@H](C)NC(=O)[C@H](CO)NC(=O)[C@H](CCSC)NC(=O)[C@H](CCC(=O)O)NC(=O)[C@H](CC(C)C)NC(=O)[C@H](Cc1ccc(O)cc1)NC(=O)[C@H](CO)NC(=O)[C@H](CCC(=O)O)NC(=O)[C@H](CCC(N)=O)NC(=O)[C@H](CCCNC(=N)N)NC(=O)[C@H](CCCCN)NC(=O)[C@H](CC(=O)O)NC(=O)[C@H](CC(C)C)NC(=O)[C@H](CC(N)=O)NC(=O)[C@H](Cc1ccccc1)NC(=O)[C@H](CCC(=O)O)NC(=O)[C@H](CCCCN)NC(=O)[C@@H](NC(=O)[C@H](CC(C)C)NC(=O)[C@H](CCC(=O)O)NC(=O)[C@H](CCC(=O)O)NC(=O)[C@@H](NC(=O)[C@@H](NC(=O)[C@H](CCCNC(=N)N)NC(=O)[C@H](CCCCN)NC(=O)[C@H](C)NC(=O)[C@H](Cc1ccccc1)NC(=O)[C@H](CCC(=O)O)NC(=O)[C@H](CCC(=O)O)NC(=O)[C@H](CC(C)C)NC(=O)[C@@H](N)CO)C(C)C)C(C)C)C(C)C)[C@@H](C)CC)C(=O)N[C@@H](CO)C(=O)N[C@@H](CCC(=O)O)C(=O)N[C@@H](CCCNC(=N)N)C(=O)N[C@H](C(=O)N[C@H](C(=O)N[C@@H](CCC(=O)O)C(=O)N[C@H](C(=O)N[C@H](C(=O)N[C@@H](CC(C)C)C(=O)N[C@@H](CCCNC(=N)N)C(=O)N[C@@H](Cc1c[nH]cn1)C(=O)N[C@@H](C)C(=O)N[C@@H](C)C(=O)N[C@@H](CCC(N)=O)C(=O)N[C@H](C(=O)N[C@@H](CC(C)C)C(=O)N[C@@H](CCCCN)C(=O)O)[C@@H](C)O)C(C)C)[C@@H](C)CC)[C@@H](C)CC)[C@@H](C)CC	Gasdermin-C, N-terminal domain (GSDMC, Homo sapiens, UniProt Q9BYG8)	microscale thermophoresis	native HEK293 cell lysate		~0.22 µM
N[C@@H](Cc1ccc(O)c(I)c1)C(=O)O	Iodotyrosine deiodinase (IYD, Thermotoga neapolitana, UniProt B9K712, M41A/Y112A)	FMN fluorescence quenching		25 °C, M41A/Y112A variant	0.024 ± 0.002 µM
CSCC[C@H](N)C(=O)N[C@@H](CC(=O)O)C(=O)N[C@@H](CO)C(=O)N[C@@H](Cc1ccccc1)C(=O)N[C@@H](CC(N)=O)C(=O)N[C@@H](C)C(=O)N[C@H](C(=O)N[C@H](C(=O)N1CCC[C@H]1C(=O)N[C@@H](CC(=O)O)C(=O)N[C@@H](C)C(=O)NCC(=O)N[C@@H](Cc1c[nH]cn1)C(=O)N[C@@H](C)C(=O)N[C@@H](CC(=O)O)C(=O)N[C@@H](CC(=O)O)C(=O)N[C@@H](CCCCN)C(=O)N[C@@H](CC(=O)O)C(=O)N[C@H](C(=O)N[C@@H](CC(C)C)C(=O)N[C@@H](CC(=O)O)C(=O)N[C@@H](CC(C)C)C(=O)N[C@@H](CC(N)=O)C(=O)N[C@H](C(=O)N1CCC[C@H]1C(=O)N[C@H](C(=O)N[C@@H](CC(=O)O)C(=O)N[C@@H](CCCCN)C(=O)O)C(C)C)[C@@H](C)O)[C@@H](C)O)[C@@H](C)O)[C@@H](C)O	Complement C5, C5a fragment (Homo sapiens, UniProt P01031)	circular dichroism titration		pH 7.4, 25 °C	~0.123 µM
O=C(Nc1cccc(-c2nn[nH]n2)c1)c1cc(-c2ccsc2)cc(C(F)(F)F)c1	Beta-lactamase CTX-M-27	surface plasmon resonance		25 °C	11.4 ± 0.7 µM
COC(=O)[C@H](Cc1ccccc1)NC(=O)[C@@H]1CCCN1C(=O)[C@H](Cc1c[nH]cn1)NC(=O)[C@H](C)NC(C)=O	PIN1	binding		pH 7.4	0.45 µM
CC[C@H](C)[C@H](NC(=O)[C@H](CCCCN)NC(=O)[C@H](CCC(=O)O)NC(=O)[C@H](CCCCN)NC(=O)[C@H](CO)NC(=O)[C@H](CCCCN)NC(=O)[C@H](CCCNC(=N)N)NC(=O)[C@H](Cc1ccccc1)NC(=O)[C@H](Cc1ccccc1)NC(=O)[C@H](CC(=O)O)NC(=O)CNC(=O)[C@H](CC(C)C)NC(=O)[C@@H](N)CC(C)C)C(=O)NCC(=O)N[C@@H](CCCCN)C(=O)N[C@@H](CCC(=O)O)C(=O)N[C@@H](Cc1ccccc1)C(=O)N[C@@H](CCCCN)C(=O)N[C@@H](CCCNC(=N)N)C(=O)N[C@H](C(=O)N[C@H](C(=O)N[C@@H](CCC(N)=O)C(=O)N[C@@H](CCCNC(=N)N)C(=O)N[C@H](C(=O)N[C@@H](CCCCN)C(=O)N[C@@H](CC(=O)O)C(=O)N[C@@H](Cc1ccccc1)C(=O)N[C@@H](CC(C)C)C(=O)N[C@@H](CCCNC(=N)N)C(=O)N[C@@H](CC(N)=O)C(=O)N[C@@H](CC(C)C)C(=O)N[C@H](C(=O)N1CCC[C@H]1C(=O)N[C@@H](CCCNC(=N)N)C(=O)N[C@H](C(=O)N[C@@H](CCC(=O)O)C(=O)N[C@@H](CO)C(=O)O)[C@@H](C)O)C(C)C)[C@@H](C)CC)C(C)C)[C@@H](C)CC	M protein, serotype 49 (emm49, Streptococcus pyogenes serotype M49, UniProt P16947)	binding, surface plasmon resonance	Streptococcus pyogenes, M49	with: immobilized cathelicidin	62.7 µM
C[C@H](N)C(=O)N[C@@H](CCCNC(=N)N)C(=O)N[C@H](C(=O)N[C@@H](CCCCN)C(=O)N[C@@H](CCC(N)=O)C(=O)N[C@H](C(=O)N[C@@H](C)C(=O)N[C@@H](CCCNC(=N)N)C(=O)N[C@@H](CCCCN)C(=O)N[C@@H](CO)C(=O)N[C@H](C(=O)NCC(=O)O)[C@@H](C)O)[C@@H](C)O)[C@@H](C)OP(=O)(O)O	BIRC5 (Homo sapiens, UniProt O15392, H80R)	binding, ITC		pH 7.8	60.2 µM
C[C@H](NC(=O)[C@@H](N)Cc1ccc(O)cc1)C(=O)NCC(=O)N[C@@H](CO)C(=O)N[C@H](C(=O)N[C@@H](CC(=O)O)C(=O)N[C@@H](CCC(=O)O)C(=O)N[C@@H](CC(N)=O)C(=O)N[C@H](C(=O)N[C@@H](CC(=O)O)C(=O)N[C@@H](CO)C(=O)N[C@@H](CCC(=O)O)C(=O)O)[C@@H](C)OP(=O)(O)O)[C@@H](C)O	Bifunctional polynucleotide phosphatase/kinase, FHA domain (Homo sapiens, UniProt Q96T60)	binding, ITC		pH 7.5, 10 °C, PNK FHA domain	~13.5 µM
COC(=O)[C@H](Cc1ccccc1)NC(=O)[C@@H]1CCCN1C(=O)[C@H](CCC(N)=O)NC(=O)[C@H](C)NC(C)=O	PIN1	binding		pH 7.4	62.5 µM
CC(C)[C@H](NC(=O)[C@H](CCC(N)=O)NC(=O)CNC(=O)[C@H](CC(N)=O)NC(=O)[C@H](C)NC(=O)[C@H](Cc1c[nH]cn1)NC(=O)[C@@H](NC(=O)[C@@H](NC(=O)[C@@H](NC(=O)[C@H](CC(N)=O)NC(=O)[C@H](Cc1ccc(O)cc1)NC(=O)[C@H](C)NC(=O)[C@H](CC(N)=O)NC(=O)[C@@H](NC(=O)[C@@H](N)CCC(=O)O)[C@@H](C)O)C(C)C)[C@@H](C)O)[C@@H](C)O)C(=O)N[C@@H](CO)C(=O)N[C@@H](Cc1ccc(O)cc1)C(=O)NCC(=O)N[C@@H](C)C(=O)N[C@@H](CCCNC(=N)N)C(=O)N1CCC[C@H]1C(=O)N[C@H](C(=O)N[C@@H](Cc1ccc(O)cc1)C(=O)N[C@@H](CCCCN)C(=O)N[C@@H](CCCCN)C(=O)N1CCC[C@H]1C(=O)N[C@@H](CO)C(=O)O)[C@@H](C)O	FGA/FGB/FGG, D fragment (Homo sapiens, UniProt P02671+P02675+P02679, del433-453)	isothermal titration calorimetry		pH 7.4, 27 °C	0.0772 ± 0.0086 µM
CC(C)C[C@H](NC(=O)CNC(=O)[C@@H](NC(=O)[C@H](CO)NC(=O)[C@H](CCCCN)NC(=O)[C@H](CC(C)C)NC(=O)C1(NC(=O)[C@H](CCC(=O)O)NC(=O)[C@H](CC(C)C)NC(=O)[C@@H](N)C(C)C)CC(C)(C)N([O])C(C)(C)C1)C(C)C)C(=O)N[C@@H](Cc1ccccc1)C(=O)O	Rhodopsin, photoactivated (Meta II) (RHO, Bos taurus, UniProt P02699)	EPR	rod outer segment membranes	pH 6.8, 296 K, rhodopsin 90 µM	12.5 µM
CC(=O)N(Cc1ccccc1)[C@@H](C)C(=O)N(C)[C@@H](C)C(=O)N(Cc1c[nH]c2cc(Cl)ccc12)[C@@H](C)C(=O)N(C)[C@@H](C)C(=O)N(CCC(C)(C)C)[C@@H](C)C(=O)N1CCNCC1	E3 ubiquitin-protein ligase Mdm2, N-terminal domain 17-125 (MDM2, Homo sapiens, UniProt Q00987)	binding, SPR kinetic fit	PBS with Tween	10 °C, immobilised peptoid	0.0095 µM
CC[C@H](C)[C@H](N)C(=O)NCC(=O)N[C@@H](CO)C(=O)N[C@H](C(=O)N[C@@H](C)C(=O)N1CCC[C@H]1C(=O)N[C@H](C(=O)N[C@H]1CSSC[C@@H]2NC(=O)[C@H](CCCNC(=N)N)NC(=O)[C@H](Cc3ccc(O)cc3)NC(=O)[C@H](Cc3c[nH]cn3)NC(=O)[C@H](Cc3ccc(O)cc3)NC(=O)[C@H](C)NC(=O)[C@H](CO)NC(=O)[C@H](CC(N)=O)NC(=O)[C@H]([C@@H](C)CC)NC(=O)[C@@H]3CCCN3C(=O)[C@H](CC(=O)O)NC(=O)[C@H](CC(N)=O)NC(=O)CNC(=O)[C@H](CCC(=O)O)NC(=O)[C@H](C(C)C)NC(=O)[C@@H]3CCCN3C(=O)[C@H](C(C)C)NC(=O)[C@H](CCC(N)=O)NC(=O)[C@H](CCC(=O)O)NC(=O)[C@H](C)NC(=O)[C@H](CCCNC(=N)N)NC(=O)[C@@H]3CSSC[C@H](NC(=O)[C@H](CCC(=O)O)NC(=O)[C@H](CC(N)=O)NC(=O)[C@H](Cc4ccc(O)cc4)NC(=O)[C@H]([C@@H](C)O)NC1=O)C(=O)N[C@@H](CCCNC(=N)N)C(=O)NCC(=O)N[C@@H](CSSC[C@@H](C(=O)N[C@@H](Cc1c[nH]cn1)C(=O)N[C@@H](CCCNC(=N)N)C(=O)O)NC(=O)[C@H](C(C)C)NC2=O)C(=O)N[C@@H](CCCNC(=N)N)C(=O)N[C@@H](Cc1ccc(O)cc1)C(=O)N[C@@H](CCCCN)C(=O)N3)[C@@H](C)O)[C@@H](C)O	LRR receptor-like serine/threonine-protein kinase ERECTA, ectodomain (ERECTA, Arabidopsis thaliana, UniProt Q42371)	binding, QCM		4 °C	0.044 ± 0.021 µM
CCCCCCCCCCCCCC(=O)N[C@H](CCN)C(=O)N[C@@H]1C(=O)N[C@@H](CCN)C(=O)N[C@@H](CC(C)C)C(=O)N[C@@H](CCN)C(=O)N[C@H](Cc2ccccc2)C(=O)N[C@@H](CC(C)C)C(=O)N[C@@H](CCN)C(=O)N[C@H](CCN)C(=O)N[C@@H](C(C)C)C(=O)N[C@@H](CC(=O)O)C(=O)O[C@@H]1C	lipoteichoic acid	binding, isothermal titration calorimetry		pH 7.4, 25 °C	5.61 ± 3.53 µM
CC[C@H](C)[C@H](NC(=O)[C@H](CCCCN)NC(=O)[C@@H](NC(=O)[C@@H](NC(=O)[C@H](C)NC(=O)[C@@H]1CCCN1C(=O)[C@H](CC(C)C)NC(=O)[C@H](Cc1c[nH]c2ccccc12)NC(=O)[C@@H](NC(C)=O)[C@@H](C)O)C(C)C)[C@@H](C)CC)C(=O)N[C@@H](CCC(N)=O)C(=O)N[C@@H](C)C(=O)N[C@@H](Cc1c[nH]cn1)C(=O)N[C@@H](Cc1c[nH]c2ccccc12)C(=O)N[C@@H](CCCNC(=N)N)C(=O)NCC(=O)N[C@@H](Cc1ccc(O)cc1)C(=O)N[C@@H](CCCNC(=N)N)C(=O)N[C@@H](CCC(N)=O)C(=O)N[C@@H](CCCNC(=N)N)C(=O)N[C@@H](CCCCN)C(=O)N[C@H](C(=O)N[C@@H](Cc1ccc(O)cc1)C(=O)N[C@@H](CC(C)C)C(N)=O)[C@@H](C)CC	Calmodulin-1 (CALM1, Homo sapiens, UniProt P0DP23)	binding, native gel titration		1 h, 22 °C, with: Ca2+, calmodulin 35 µM	27 ± 4 µM
C=C/C=C\CC[C@H]1O[C@H]2CC[C@@]3(C)O[C@H]4[C@@H](O)C[C@@]5(C)O[C@@H](CC/C=C(C)/C(C)=C/C=N/NC(=O)CCC6=[N+]7C(=Cc8c(C)cc(C)n8[B-]7(F)F)C=C6)[C@@H](C)C[C@@H]5O[C@@H]4C[C@@H]3O[C@@H]2CC[C@]1(C)O	brevenal binding site (rat)	saturation binding	rat brain synaptosomes		0.264 ± 0.046 µM
